# Measured values gathered from unrelated publications.
# Each numbered part is a random draw from the data of one study; scales do not carry over between parts. Substitutions count along the parent as printed.

# Block 1
# Target: Interferon regulatory factor 5, full length, phosphomimetic (IRF5, Homo sapiens, UniProt Q13568-2, residues 1-514, S451D/S453D/S456D/S462D)
# Method: protein-binding microarray
# Molecule type: double-stranded DNA, one strand shown
# Medium: in vitro
# Concentration: 940 nM top
# Setting: 60-bp whole probe
# Added: salmon DNA 0.4 mg/ml
# Baseline: random background probes
# Direction: higher = stronger binding
# Constant ends, left off below: GCCTAGCAC … GTCTTGATTCGCTTGACGCTGCTG
Sequence,fitted relative affinity [z-score]
GCCGGTTTCCTTTTCCTGACGTGCTAG,2.54
TTAGATCTCAGTCACGATTAGTGCTAG,0.547
AGGATCCTGGGAGGGAGAGCGTGCTAG,-0.103
TTAGGTATCGGACTGGGTGAGTGCTAG,3.35
TTTTTTTTACTTCGGGTGACGTGCTAG,0.91
TTAGAACTGGGGAATCGATTAGTGCTA,0.206
TTAGGTTCCGGTTTCGGTTGGTGCTAG,9.04
GACGGTTTCCAACTGCTGACGTGCTAG,0.386
TTAGGCTCCCTTTTCCTTTAGTGCTAG,0.251
TTAGCACTGAGTTTCGATTAGTGCTAG,7.18
TTAGATATGAGTTTCGATTAGTGCTAG,6.94
TAAGGTATCGGTTTCGGTTAGTGCTAG,11.3
AGAATTTTCATTAACTGTTAGTGCTAG,0.433
TCAGTTTTCACTTTTCCACTGTGCTAG,2.71
TGTGCTTTCCTCGTGATGCTGTGCTAG,-0.229
GACGATATAGGGTATCGAGACGTGCTA,0.627
AAAATTTTAACCCTTATTCTGTGCTAG,0.502
GACGATATCGGGTATCGAGAAGTGCTA,0.752
TTAGGTTTCGTGACTGGGTTAGTGCTA,4.3
TCATGCTTTCTTTTATGACTGTGCTAG,1.38
CTAGAACTGGGGTATCGATTAGTGCTA,2.99
GCTTTTATCCCTGACAGAAGGTGCTAG,0.411
TACGAACTGGGGTTTCGAGACGTGCTA,1.92
GACGCTTCCCTTTTCCTGACGTGCTAG,1.4
TTAGGTCTCGGTCTCGGTAAGTGCTAG,5.54

# Block 2
# Target: RNA binding protein fox-1 homolog 2, RRM domain, GST-SBP tag (RBFOX2, Homo sapiens, UniProt O43251-10, residues 100-194)
# Method: RNA Bind-n-Seq
# Molecule type: RNA
# Medium: in vitro
# Concentration: 365 nM
# Setting: natural RNA segment, single round, ends assumed
# Baseline: no-protein control
# Direction: higher = stronger binding
# Constant ends, left off below: GGGAGUUCUACAGUCCGACGAUC … UGGAAUUCUCGGGUGCCAA
# Construct (chain): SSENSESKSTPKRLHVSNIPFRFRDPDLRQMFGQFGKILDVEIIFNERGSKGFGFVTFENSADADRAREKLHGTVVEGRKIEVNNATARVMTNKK
Sequence,RBNS enrichment (R)
GCAGCUGGACUUGAACCCACAAUGGCUUGUGUAAAUUCGUAAAUUUCAUGGUUUCUAGGAAAAGCUGCAUUGGGGUGGGGAGACCCAGUUUGCCUCAUAGGCAGAGGAUU,0.281
UCUUGUAGUCAGGCAGUAUAGUGUAGCAGGGCAAUCUGUCUGACACCUAAAUGGACUUGAAAUUGAAGCAGGAAGGUUGGGUUCUCCAUGGAUGGAACUCACCUGCCUGA,0.729
UGAUUGUGUUUCGUAAGAGACAACAUGGCCUCCUAAGGUGCAAUCCUGCCGCUAUAGUGAGCUAAUGUCCUGAAUCCAAAGGCUUCAGAAAAUUGCUUUUGCCUUUUUCA,0.343
AAUAUAUAUUUUAAUAUCUGUAAAAAGUGACAGUGGAAGACUUUGAAUUUCUCAUAUAUGGUAUGUUUGAUGUAGGACCUCACUGUUAAGGCACAAAUUAUUUCAAAGGA,0.526
AGGUGAAAGAAAAUGUCAUGCAUGUAAAGAUCACAUCUGCCACUACCUUGGCACUCAGGUGCUGGUAUGUGCAUUCUUGCUUCCAAAGGAUUGACAGUAACAAAUUCUCA,19.1
CUUAGUAGAUAAAUAGUAAUAAUAAUAAUAAUACAAUUGAGUUAUCAGCCACAAUUCCUUUUGGAACUGUUACACUCUGCCUCUGGUCCCUCCAACGUGGUCCUCUUCCU,0.301
UCUCUUCUCUUCUUUGAGACAGGGUUUCACUCACUUUGUAACCCUAGCUGGCCUGGAAUUCACUAUGUAGAGCAGACUGGUCUUGAACUCACAGUCACAGAGAUCACCUG,0.314
UAGCCAAGUAGGUUCACUGAGGUUCCAGACUCUUCCACUGGCCUGGGGCCAUGGACAUCUUGUGAGCCCUGCCCUCUGGCUGUAGUUGUCUGAGUGUGAGGGGUUUCAUU,0.306
UAGGAUGUGGUGCAGCCCUCUCUACGCUCUUCUAUUUUUGGUAUAUUUCCUAUCUAACCUUCAAAUAGCUUCCAAUUCUUUUUUUCUUGGACUGGCUUCAUUCUGAAUUU,0.858
UGAAGAGAUGAGUGCUCAGAGCCCUCAUGCUGUUGAGGCUAAAGGGAGGCCUGGAACGGUGGGGCGUUUGACUGGAAUGGACCCCAGGGACUGUCCAGGUGCAGCCCCUC,0.622
AGAAGAAAUAUGUUACACUCAGAAAUGAUGAAACCAAAUCUUAUAUUAAAAGGCAAAGAUGACGGAGCUGUGCCCAUUUCUUAUAUGCCCUCCCUCAUGUCCAGUCCCCG,0.305
UUAUGGAGGAUUGCAUGCAGGAUACACACUUCAUUAAAUCCUCUAAAAUCUAACUUUGAUUAAUUAAGUACAGGGUUAUUGCUGAUAGCCUCAUAACUCUACCACCAUUA,0.753

# Block 3
# Target: ABI1, truncated, D143A, DHFR fusion (Arabidopsis thaliana)
# Method: DHFR PCA, deep sequencing
# Medium: yeast
# Setting: methotrexate growth selection, single substitutions
# Added: (+)-ABA 200 µM
# Baseline: wild-type fitted maximum
# Direction: higher = stronger binding
# Starting sequence: PYL1, truncated, DHFR fusion (Arabidopsis thaliana); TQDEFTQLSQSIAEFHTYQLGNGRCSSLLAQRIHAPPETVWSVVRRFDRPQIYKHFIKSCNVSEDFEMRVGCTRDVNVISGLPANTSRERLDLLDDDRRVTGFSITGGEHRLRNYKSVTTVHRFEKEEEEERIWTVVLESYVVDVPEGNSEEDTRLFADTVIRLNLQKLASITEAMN; partner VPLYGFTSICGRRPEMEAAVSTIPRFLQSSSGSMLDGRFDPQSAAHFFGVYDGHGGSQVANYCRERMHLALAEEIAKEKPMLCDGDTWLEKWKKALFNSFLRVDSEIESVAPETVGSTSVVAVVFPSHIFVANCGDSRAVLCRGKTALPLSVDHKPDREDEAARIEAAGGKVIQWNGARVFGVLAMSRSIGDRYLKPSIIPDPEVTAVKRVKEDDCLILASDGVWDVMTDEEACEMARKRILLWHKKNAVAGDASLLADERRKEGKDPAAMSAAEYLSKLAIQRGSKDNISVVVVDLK
Change,relative binding score
I162M,31.2%
E127P,110%
A84Q,12.9%
C25L,85.2%
Y53E,13.8%
L93C,106%
R90L,68.3%
V143F,18.1%
L94Q,58%
R32H,108%
N177I,98.5%
T135W,-1.55%
T120F,-11.8%
V145Y,31.2%
D92F,56.2%
M68H,101%
L169P,7.13%
S11C,98.6%
F47A,-3.14%
S140H,20.4%
E4Q,93.6%
V43T,83%
G102V,43.6%
R123F,79.3%
L138W,21.5%

# Block 4
# Target: Histone acetyltransferase KAT6A, winged helix 1, GST fusion (KAT6A, Homo sapiens, UniProt Q92794, residues 1-85)
# Method: protein binding microarray
# Molecule type: double-stranded DNA, one strand shown
# Medium: in vitro
# Concentration: not given
# Setting: 8-mer, flanks averaged, mean of 2 arrays, mostly near background
# Baseline: not given
# Direction: higher = stronger binding
# Target sequence (chain): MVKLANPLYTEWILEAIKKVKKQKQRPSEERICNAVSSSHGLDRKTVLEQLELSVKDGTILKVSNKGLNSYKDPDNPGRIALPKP
Sequence,E-score
GGACGACA,-0.106
ATCTCAGG,-0.115
AAATTACT,-0.122
ATACGGAT,0.126
ATGTGGAA,-0.187
AGAGCATA,-0.142
TGAGTACA,-0.0915
CTAGGAGC,-0.0414
CACGGCAC,0.326
CCAATCTA,-0.253
CGTGACAA,0.00266
TAATTGTA,0.00117
GGGCGGCA,0.379
AGAAGTTC,-0.178
CCGTGACC,0.287
AGTTGAAA,-0.118
CAAGTCTG,-0.288
GAGTTTAC,-0.108
CCATTAGG,-0.0325

# Block 5
# Target: Ras GTPase-activating protein-binding protein 1, RRM domain (G3BP1, Homo sapiens, UniProt Q13283)
# Chain of UniProt Q13283 (whole entry, looked up): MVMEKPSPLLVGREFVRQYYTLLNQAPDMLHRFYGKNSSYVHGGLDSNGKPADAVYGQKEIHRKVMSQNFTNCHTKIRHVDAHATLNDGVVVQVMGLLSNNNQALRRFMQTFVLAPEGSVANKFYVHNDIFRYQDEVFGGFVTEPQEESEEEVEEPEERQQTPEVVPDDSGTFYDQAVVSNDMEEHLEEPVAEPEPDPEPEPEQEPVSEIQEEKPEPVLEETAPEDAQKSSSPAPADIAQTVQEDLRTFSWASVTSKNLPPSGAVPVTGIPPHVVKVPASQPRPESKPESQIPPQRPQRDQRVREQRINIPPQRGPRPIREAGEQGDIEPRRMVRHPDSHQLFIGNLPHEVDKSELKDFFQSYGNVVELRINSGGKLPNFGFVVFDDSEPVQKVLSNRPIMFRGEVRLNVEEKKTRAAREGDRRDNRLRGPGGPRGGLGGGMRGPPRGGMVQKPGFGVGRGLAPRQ
# Method: RNA Bind-n-Seq
# Molecule type: RNA
# Medium: in vitro
# Concentration: 1 µM
# Setting: whole 134-nt RNA, ends assumed
# Added: 150 mM KCl
# Baseline: input library
# Direction: higher = stronger binding
# Constant ends, left off below: GGGAGUUCUACAGUCCGACGAUC … UGGAAUUCUCGGGUGUCAAGG
Sequence,log2 enrichment
CCUGUGCUACACAUCGUAUGUACCGAAUCGGUUUUUUUGGGGUUUUUUUGGUUUUUUUGGGAAAGUAUUAUGUUACGCCGUUCGGAUCUG,-0.286
UGGCCCUGGUGGCAUGCGAGGAGGAAGAGGUGGCCUCAUGGAUCGUGGUGGUCCCGGUGGAAUGUUCAGAGGUGGCCGUGGUGGAGACAG,0.845
CAAGUCCUGUGCUACACAUCGUAUGUACCGAAUCGGGUUUUUGGGUGGGAAAGGGAAAGUAUUAUGUUACGCCGUUCGGAUCUGCACUUC,0.725
CCUGUGCUACACAUCGUAUGUACCGAAUCAAAUUUUUAAAUUUUUUUAAAUUUUUUUAAAAAAGUAUUAUGUUACGCCGUUCGGAUCUGC,-0.471
AAGUCCUGUGCUACACAUCGUAUGUACCGAAUCAAACCCAAACCCCCAAACCCAAAAAAGUAUUAUGUUACGCCGUUCGGAUCUGCACUU,-0.147
UAACUUUAGAGGAGGAUCUGAUGGAUAUGGCAGUGGACGUGGAUUUGGGGAUGGCUAUAAUGGGUAUGGAGGAGGACCUGGACGUGGCAA,-0.409
GAGGAGCUGCUGCUGGAGCCCGAGCCGGAGCCCGAGCCCGAAGAGGAGCCGCCCCGGCCCCGCGCCCCCCCGGGAGCUCCGGGCCCUGGG,-0.91
CAAGUCCUGUGCUACACAUCGUAUGUACCGAAUCGGGCCCGGGGCCCGGGGCCCGGAAAGUAUUAUGUUACGCCGUUCGGAUCUGCACUU,-1.13
UCAAGUCCUGUGCUACACAUCGUAUGUACCGAAUCGGGAGGGAAAAAGGGUGGGAAAGUAUUAUGUUACGCCGUUCGGAUCUGCACUUCC,0.537
AGUCCUGUGCUACACAUCGUAUGUACCGAAUCGGUUUUGGGGUUUUGGGUUUUGGGGAAAGUAUUAUGUUACGCCGUUCGGAUCUGCACU,-0.106
CUGUGCUACACAUCGUAUGUACCGAAUCGGGGUUUUUUUGGUUUUUUUGGGGUUUUUUUGGGAAAGUAUUAUGUUACGCCGUUCGGAUCU,-0.211
CAAGUCCUGUGCUACACAUCGUAUGUACCGAAUCGGAAAAAAAGGUGGUUUUUGGAAAGUAUUAUGUUACGCCGUUCGGAUCUGCACUUC,-0.175
ACCAUGCAGGUGGGCAUCUUUGGGAAGUGGGGCUAGGGGGGGAUAGGGAGGGGGGUAACACUUUGGGAACAGGUGGUCCCAGGUCGUUUC,-0.449
GUCCUGUGCUACACAUCGUAUGUACCGAAUCGGUUUUUUGGUUUUUUGGGUUUUUUGGGAAAGUAUUAUGUUACGCCGUUCGGAUCUGCA,-0.322

# Excerpt of the above (block 1):
Sequence,fitted relative affinity [z-score]
TTAGAACTGGGGAATCGATTAGTGCTA,0.206
GCTTTTATCCCTGACAGAAGGTGCTAG,0.411
TTAGGTCTCGGTCTCGGTAAGTGCTAG,5.54
TTAGGCTCCCTTTTCCTTTAGTGCTAG,0.251
AGGATCCTGGGAGGGAGAGCGTGCTAG,-0.103
TCATGCTTTCTTTTATGACTGTGCTAG,1.38
